Published values of several laboratories.
Each numbered part is a random draw from the data of one study; scales do not carry over between parts. Changes are numbered by the printed parent chain.

Set 1
Target: CCNF, cyclin fold, Cln2 fusion (human)
Technique: yeast growth competition, sequencing
Medium: yeast
Notes: weak parent motif
Baseline: not given
Direction: higher = stronger binding
Endpoint: normalised enrichment score
Starting sequence: LLGL2 docking peptide (human); KSLKKSLRQSFRR
Variant = Q9A; result = 1.54
Variant = R12A; result = 1.15
Variant = L7A; result = 0.427
Variant = K1A; result = 0.685
Variant = S10A; result = 1.03
Variant = K5A; result = 1.07

Set 2
Target: Prothrombin, mature alpha-thrombin (F2, Homo sapiens, UniProt P00734)
Technique: aptamer microarray, sandwich
Form: DNA with 2'F-ANA
Medium: in vitro
Concentration: 200 nM
Notes: whole 15-mer aptamer, many near background
Added: Cy3 exosite-II aptamer, 400 nM
Direction: higher = stronger binding
Endpoint: mean fluorescence intensity
Sequence: GGTTGGTGTGGTTGG
Modification = 2'F-ANA at 1 4 6 7 8 10 13 14 15; result = 165 a.u.
Modification = 2'F-ANA at 1 2 4 8 14 15; result = 57.8 a.u.
Modification = 2'F-ANA at 1 3 4 5 8 12 13 14; result = 47.1 a.u.
Modification = 2'F-ANA at 3 4 13; result = 600 a.u.
Modification = 2'F-ANA at 1 2 3 5 8 10 12 13 14 15; result = 50.3 a.u.
Modification = 2'F-ANA at 3 4 5 8 11 12 15; result = 167 a.u.
Modification = 2'F-ANA at 1 3 4 6 9 10 11 12 13 14 15; result = 54.1 a.u.
Modification = 2'F-ANA at 2 3 5 6 7 8; result = 118 a.u.
Modification = 2'F-ANA at 5 6 9 10; result = 46.7 a.u.
Modification = 2'F-ANA at 1 3 4 6 7 8 9 11 15; result = 155 a.u.
Modification = 2'F-ANA at 6 7 8 10 12; result = 229 a.u.
Modification = 2'F-ANA at 2 5 7 8 11 12 13; result = 117 a.u.
Modification = 2'F-ANA at 1 3 4 5 6 7 9 13 15; result = 53.2 a.u.
Modification = 2'F-ANA at 1 4 7 8 9 10 11 13; result = 48.1 a.u.
Modification = 2'F-ANA at 1 3 4 5 10 12 13 15; result = 47.5 a.u.
Modification = 2'F-ANA at 2 3 4 8 9 10 11 14 15; result = 171 a.u.
Modification = 2'F-ANA at 2 4 5 7 8 9 12 15; result = 148 a.u.
Modification = 2'F-ANA at 2 5 7 8 9 11 12; result = 144 a.u.
Modification = 2'F-ANA at 7 8 9 10 13; result = 160 a.u.
Modification = 2'F-ANA at 2 3 5 12 13; result = 183 a.u.
Modification = 2'F-ANA at 1 3 4 8 11 12 14; result = 97.2 a.u.
Modification = 2'F-ANA at 3 4 6 8 9 11 14; result = 240 a.u.
Modification = 2'F-ANA at 1 2 4 7 8 12 13 14; result = 64.4 a.u.

Set 3
Target: Histone acetyltransferase KAT6A, winged helix 2, GST fusion (KAT6A, Homo sapiens, UniProt Q92794, residues 85-181)
Technique: protein binding microarray
Form: double-stranded DNA, one strand shown
Medium: in vitro
Concentration: not given
Notes: 8-mer, flanks averaged, mean of 2 arrays, mostly near background
Baseline: not given
Direction: higher = stronger binding
Endpoint: E-score
Construct (chain): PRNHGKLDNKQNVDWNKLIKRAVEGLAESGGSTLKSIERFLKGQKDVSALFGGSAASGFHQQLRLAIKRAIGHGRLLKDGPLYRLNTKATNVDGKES
Sequence = AGCCTACG; result = 0.126
Sequence = ACTGTTAT; result = -0.165
Sequence = CCTTCCTA; result = -0.0566
Sequence = AGCACGAC; result = -0.0309
Sequence = CTTTCCTC; result = 0.117
Sequence = AGCGCAAG; result = -0.0742
Sequence = GCTAATCC; result = 0.116
Sequence = AACCAGCC; result = 0.104
Sequence = CCGACGCA; result = 0.176
Sequence = GAAAGGCA; result = 0.151
Sequence = AGGAGAAT; result = -0.126
Sequence = ACTATACG; result = -0.0567
Sequence = AGACAGTC; result = -0.171
Sequence = GAGTTGCA; result = -0.0339
Sequence = CGGTCTTC; result = 0.0288
Sequence = GGACAATA; result = -0.107
Sequence = AGGACTAA; result = -0.0783
Sequence = ATGGATTG; result = -0.00273
Sequence = CCCCATAA; result = -0.022
Sequence = ACGCAGGG; result = 0.227
Sequence = CAGTCCAG; result = -0.0307
Sequence = ATAGGCTG; result = -0.0565
Sequence = AACATCAC; result = -0.155
Sequence = CATAAGCG; result = -0.0216
Sequence = CACGCAGA; result = 0.0842

Set 4
Target: RING finger protein unkempt homolog, zinc fingers 1-6, GST-SBP tag (UNK, Homo sapiens, UniProt Q9C0B0, residues 30-357)
UniProt Q9C0B0, sequence (30-357, looked up): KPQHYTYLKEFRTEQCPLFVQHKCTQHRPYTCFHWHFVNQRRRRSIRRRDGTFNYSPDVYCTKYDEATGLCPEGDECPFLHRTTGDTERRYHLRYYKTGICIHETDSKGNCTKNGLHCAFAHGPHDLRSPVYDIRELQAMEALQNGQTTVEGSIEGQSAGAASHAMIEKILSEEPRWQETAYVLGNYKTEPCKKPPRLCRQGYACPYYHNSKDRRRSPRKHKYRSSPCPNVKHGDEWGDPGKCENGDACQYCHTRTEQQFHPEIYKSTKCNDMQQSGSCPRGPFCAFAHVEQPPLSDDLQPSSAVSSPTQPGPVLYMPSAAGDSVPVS
Technique: RNA Bind-n-Seq
Form: RNA
Medium: in vitro
Concentration: not given
Notes: RNA with constant flanks, ends assumed
Baseline: input RNA pool
Direction: higher = stronger binding
Endpoint: bound/input enrichment
Constant ends, left off below: GGGAGUUCUACAGUCCGACGAUC … CAACAGAGGAUUGAGCAUCA
Sequence = UUUGGACAGUGCUAUGAGUUUCUUACUCUUCACACAGUGAAAAAGUACUUUCUUCCAAUAACCGAAAUGGUUCCACAGUUUUUAGAAAACUUAACUGAUGAAGAGCUGAAGAAAGAAGCA; result = 0.262 ratio
Sequence = CCCACACCAAGGGGCCAUGUGCAGCAAGAGCCAAGCAGGCAGCUGUCCAUACUCACUGCCCCGGUGACCCCAGCCCCAGGGCCCAGCCCCAGCCAUUCUGGCUUCAUGCCAGAGGCAGUU; result = 0.101 ratio
Sequence = GUUAUCUCCAACAAAGCCGCAGUAGCUGGGUUAGAUAAAGCGGAAAGAGCUGGUAUUCCCACCCGAGUAAUUAAUCAUAAACUGUAUAAAAAUCGUGUAGAAUUUGACAGUGCAAUUGAC; result = 0.329 ratio
Sequence = UAUAGCUACGCCCUUGGUCAGGGGUGGGGUGGGGCUGGUUGAGGGUGGGGGUGGGAUGGGACCCGAGGGCAACAUUGAAGGGGUUAAACAGGUUCCUGAAUUUGUUUGCCUGGGCCCAAU; result = 1.32 ratio
Sequence = GUAGGUCAGGACCCUGUCAUGAGACAGGUGGAAGGAAAAAACCCAGUCACAAUAUUUUCUCCCGCAACAAAUGAGAUGUGGCGAUCAGGGGAUAGUGAAGUAUACCAAAUGGGUGACGUU; result = 0.917 ratio
Sequence = AACAUUGUAUCAUAGUUCAUUCAUUUGCAGUGGAUCUUUGUUCCUUUUUACUGUGGUAAUUUCCGAAAUGAGUGUCAAGUUUGAAAUUAGAUCUGCUAAGUUGGGGUUUUGCUGCUUGAA; result = 0.52 ratio
Sequence = UUGGCCAGUCAGUAUUCAGUUAAUGAAAUGUAUGCCGAAGCACUUAACACUUAUCAAGUUACCGUCAAAAAUAAGAUGUUUAGCAAUGCAGGAAUAUUGAAAAUGAAUAUGGGAAAUAUC; result = 0.292 ratio
Sequence = GAAAUGUUAGCACACAGAGCAGUGCUAGCUUGCUGCAGUCCCUAUUUAUUUGAAAUCUUUAACCGUGAUAGUGAUCCUCAUGGAAUUUCUCACGUUAAAUUUGAUGAUCUCAAUCCAGAA; result = 0.385 ratio

A few entries again (set 3):
Sequence = GGACAATA; result = -0.107
Sequence = CCGACGCA; result = 0.176
Sequence = ACTGTTAT; result = -0.165
Sequence = AACCAGCC; result = 0.104
Sequence = CAGTCCAG; result = -0.0307
